Measured values from different studies.
Each line is one published result; not all experiments were run side by side. ± marks the error that the study gave.

`COc1ccc(C(=O)N(O)Cc2ccccc2)cc1` — result for growth: “toxic” (Arabidopsis thaliana; agar; 100 µM).
`Cc1c(Cc2cc(C(C)(C)C)c(O)c(C(C)(C)C)c2)c(C)c(Cc2cc(C(C)(C)C)c(O)c(C(C)(C)C)c2)c(C)c1Cc1cc(C(C)(C)C)c(O)c(C(C)(C)C)c1` — result for “concentration in serosal solution”: < 0.08 µg/mL (Cyprinus carpio; everted gut sac; intestine; concentration not given, 24 h, 23 °C).
For `CC[C@H](C)[C@@H]1NC(=O)[C@H](CCCNC(=N)N)NC(=O)[C@H](CC(=O)O)NC(=O)[C@H](CC(C)C)NC(=O)[C@H](CCCCN)NC(=O)[C@H](CC(C)C)NC(=O)CNC(=O)[C@H](Cc2ccccc2)NC(=O)[C@@H](NC(=O)CNC(=O)[C@H](CCCCN)NC(=O)[C@H](CO)NC(=O)[C@H](CC(C)C)NC(=O)CN)CSSC[C@@H](C(=O)O)NC(=O)CNC(=O)[C@H](CC(C)C)NC(=O)CNC(=O)[C@H](CO)NC(=O)[C@H](CCSC)NC(=O)[C@H](CO)NC(=O)CNC1=O`, “increase in cytotoxicity” read 76.6 ± 17% (Pseudomonas aeruginosa; LDH release; A549, PA14 wild type; concentration not given; relative to: PA14 without compound).
`C=CC(=O)Oc1c(C(C)c2cc(C(C)(C)CC)cc(C(C)(C)CC)c2O)cc(C(C)(C)CC)cc1C(C)(C)CC` (stereo not shown) — result for “concentration in serosal solution”: < 0.06 µg/mL (Cyprinus carpio; everted gut sac; intestine; concentration not given, 24 h, 23 °C).
`Nc1ccccc1C(=O)NS(=O)(=O)NC[C@H]1O[C@@H](n2cnc3c(N)ncnc32)[C@H](O)[C@@H]1O` gave an accumulation of 2 to 3% (Pseudomonas aeruginosa; LC-MS/MS of lysate; PA14, LB medium; 1000 µM, 30 min; relative to: extracellular concentration).
`Cc1cc(CCC(=O)OCC(C)(C)C2OCC3(CO2)COC(C(C)(C)COC(=O)CCc2cc(C)c(O)c(C(C)(C)C)c2)OC3)cc(C(C)(C)C)c1O` (stereo not shown): “concentration in serosal solution” < 0.1 µg/mL (Cyprinus carpio; everted gut sac; intestine; concentration not given, 24 h, 23 °C).
The accumulation of `Nc1ccccc1C(=O)NS(=O)(=O)OC[C@H]1O[C@@H](n2cnc3c(N)ncnc32)[C@H](O)[C@@H]1O` is reported as 2 to 3% (Pseudomonas aeruginosa; LC-MS/MS of lysate; PA14, LB medium; 1000 µM, 30 min; relative to: extracellular concentration).
With `O=C1C=C(Br)/C(=C/Br)O1` the toxic concentration was ≥ 100 µM (Pseudomonas aeruginosa; OD600; reporter strain).
For `COc1ccc(C(=O)N(O)Cc2ccc(F)cc2)cc1`, growth read “toxic” (Arabidopsis thaliana; agar; 100 µM).
`OC1(C(F)(F)F)CCN(c2nc(Nc3ccnc(C(F)(F)F)c3)nc(-c3cccc(C(F)(F)F)n3)n2)C1` (stereo not shown) — result for cytotoxicity: “not toxic” (Salmonella typhimurium, Escherichia coli; TA98, TA100, TA1535, TA1537, WP2uvrA; up to 50 µg/plate, with and without S9).

A few entries again:
For `CC[C@H](C)[C@@H]1NC(=O)[C@H](CCCNC(=N)N)NC(=O)[C@H](CC(=O)O)NC(=O)[C@H](CC(C)C)NC(=O)[C@H](CCCCN)NC(=O)[C@H](CC(C)C)NC(=O)CNC(=O)[C@H](Cc2ccccc2)NC(=O)[C@@H](NC(=O)CNC(=O)[C@H](CCCCN)NC(=O)[C@H](CO)NC(=O)[C@H](CC(C)C)NC(=O)CN)CSSC[C@@H](C(=O)O)NC(=O)CNC(=O)[C@H](CC(C)C)NC(=O)CNC(=O)[C@H](CO)NC(=O)[C@H](CCSC)NC(=O)[C@H](CO)NC(=O)CNC1=O`, “increase in cytotoxicity” read 76.6 ± 17% (Pseudomonas aeruginosa; LDH release; A549, PA14 wild type; concentration not given; relative to: PA14 without compound).
